Assay results pooled from the literature.
Organism: Klebsiella pneumoniae

Compound	test	test system	conditions	MIC
CCCC(=O)N[C@@H](CCCCN)C(=O)N[C@@H](CCCCN)C(=O)N[C@@H](C)C(=O)N[C@@H](CC(C)C)C(=O)N[C@@H](CCCCN)C(=O)N[C@@H](CC(C)C)C(=O)N[C@@H](C)C(=O)N[C@@H](CCCCN)C(=O)N[C@@H](CCCCN)C(=O)N1CCC[C@H]1C(=O)N[C@@H](CC(C)C)C(=O)N[C@@H](CCCCN)C(=O)N[C@@H](CC(C)C)C(=O)N[C@@H](CC(C)C)C(=O)N[C@@H](CCCCN)C(N)=O	broth microdilution	ATCC 700603	18 h, 37 °C, compound alone	> 80 µM
CC[C@H](C)[C@H](NC(=O)CN)C(=O)NCC(=O)N[C@@H](C)C(=O)N[C@H](C(=O)N[C@@H](CC(C)C)C(=O)N[C@@H](CCCCN)C(=O)N[C@H](C(=O)N[C@@H](CC(C)C)C(=O)N[C@H](C(=O)N[C@H](C(=O)NCC(=O)N[C@@H](CC(C)C)C(=O)N1CCC[C@H]1C(=O)N[C@@H](C)C(=O)N[C@@H](CC(C)C)C(=O)N[C@H](C(=O)N[C@@H](CO)C(=O)N[C@@H](Cc1c[nH]c2ccccc12)C(=O)N[C@H](C(=O)N[C@@H](CCCCN)C(=O)N[C@@H](CCCNC(=N)N)C(=O)N[C@@H](CCCCN)C(=O)N[C@@H](CCCNC(=N)N)C(=O)N[C@@H](CCC(N)=O)C(=O)N[C@@H](CCC(N)=O)C(N)=O)[C@@H](C)CC)[C@@H](C)CC)[C@@H](C)O)[C@@H](C)O)C(C)C)C(C)C	broth microdilution	NCTC 5055	24 h, 37 °C	9 µg/mL
CCCCCCCCCC(=O)N[C@@H](CCCCN)C(=O)N[C@@H](CCCCN)C(=O)N[C@@H](C)C(=O)N[C@@H](CC(C)C)C(=O)N[C@@H](CCCCN)C(=O)N[C@@H](CC(C)C)C(=O)N[C@@H](C)C(=O)N[C@@H](CCCCN)C(=O)N[C@@H](CCCCN)C(=O)N1CCC[C@H]1C(=O)N[C@@H](CC(C)C)C(=O)N[C@@H](CCCCN)C(=O)N[C@@H](CC(C)C)C(=O)N[C@@H](CC(C)C)C(=O)N[C@@H](CCCCN)C(N)=O	broth microdilution	ATCC 700603	18 h, 37 °C, compound alone	> 80 µM
CC[C@H]1OC(=O)[C@H](C)[C@@H](O[C@H]2C[C@@](C)(OC)[C@@H](O)[C@H](C)O2)[C@H](C)[C@@H](O[C@@H]2O[C@H](C)C[C@H](N(C)C)[C@H]2O)[C@](C)(O)C[C@@H](C)C(=O)[C@H](C)[C@@H](O)[C@]1(C)O	broth microdilution	ATCC 43816 acrAB overexpressor		64 µg/mL
C[C@@H](N)[C@H](O)CCCCCCCC(=O)CCCCCCCCCCCCCC[C@@H](O[C@@H]1O[C@H](CO)[C@H](O)[C@H](O)[C@H]1O)[C@@H](C)N	resazurin			11.4 µM
CC[C@H](C)[C@H](NC(=O)[C@H](CC(C)C)NC(=O)[C@H](CCCCN)NC(=O)[C@@H](NC(=O)[C@H](C)NC(=O)[C@H](CCC(=O)O)NC(=O)[C@H](Cc1c[nH]cn1)NC(=O)[C@@H](NC(=O)[C@H](CCCCN)NC(=O)[C@H](CCC(N)=O)NC(=O)[C@H](Cc1ccccc1)NC(=O)[C@@H](N)C(C)C)[C@@H](C)CC)[C@@H](C)CC)C(N)=O	CLSI broth microdilution	ATCC 13883	18 h, 37 °C	> 128 µM
NC(=O)[C@@H]1CC[C@@H]2CN1C(=O)N2OS(=O)(=O)O		ATCC BAA-2146 NDM-1 ESBL	compound alone	8 µg/mL
C[C@@H](O)[C@H]1C(=O)N2C(C(=O)O)=C(S[C@@H]3CN[C@H](C(=O)N(C)C)C3)[C@H](C)[C@H]12	broth microdilution	KPC-25 producing		4 µg/mL
CC[C@H](C)[C@H](NC(=O)[C@H](CCCCN)NC(=O)[C@H](CCCNC(=N)N)NC(=O)[C@H](CCCNC(=N)N)NC(=O)[C@H](CC(C)C)NC(=O)[C@H](CCCCN)NC(=O)[C@H](CCCCN)NC(=O)[C@H](Cc1ccccc1)NC(=O)[C@H](CC(C)C)NC(=O)CNC(=O)[C@H](CCCNC(=N)N)NC(=O)[C@@H](N)CCCNC(=N)N)C(=O)N[C@@H](CCCCN)C(=O)N[C@@H](CCCCN)C(=O)NCC(=O)N[C@@H](Cc1ccccc1)C(=O)N[C@@H](CCCCN)C(=O)N[C@@H](CCCCN)C(=O)N[C@H](C(=O)N[C@@H](Cc1ccccc1)C(=O)N[C@@H](CCCCN)C(=O)N[C@@H](CCCNC(=N)N)C(=O)N[C@@H](CC(C)C)C(=O)N1CCC[C@H]1C(=O)N1CCC[C@H]1C(=O)N[C@H](C(=O)NCC(=O)N[C@H](C(=O)NCC(=O)N[C@H](C(=O)N[C@@H](CO)C(=O)O)C(C)C)C(C)C)C(C)C)[C@@H](C)CC		ATCC 43823	highest concentration 50 µM	1.29 µM
CC[C@H](C)[C@H](N)C(=O)N[C@@H](CC(C)C)C(=O)NCC(=O)N[C@H](CCCCN)C(=O)N[C@H](C(=O)N[C@@H](Cc1c[nH]c2ccccc12)C(=O)N[C@@H](CCCCN)C(=O)NCC(=O)N[C@H](C(=O)N[C@@H](CCCCN)C(=O)N[C@@H](CC(=O)O)C(=O)N[C@H](C(=O)N[C@@H](CC(C)C)C(N)=O)[C@@H](C)CC)[C@@H](C)CC)[C@@H](C)CC	broth microdilution	ATCC 27736, Mueller-Hinton broth	16 h, 37 °C	100 µM
CC(=O)N[C@@H](CCCCN)C(=O)N[C@@H](CC(C)C)C(=O)N[C@@H](CC(C)C)C(=O)N[C@@H](CCCCN)C(=O)N[C@@H](CC(C)C)C(=O)N[C@@H](CC(C)C)C(=O)N[C@@H](CCCCN)C(=O)N[C@@H](CCCCN)C(=O)N1CCC[C@H]1C(=O)N[C@@H](CC(C)C)C(=O)N[C@@H](CCCCN)C(=O)N[C@@H](CC(C)C)C(=O)N[C@@H](CC(C)C)C(N)=O	broth microdilution	ATCC 700603	18 h, 37 °C, compound alone	> 80 µM
CC[C@H](C)[C@H](NC(=O)[C@H](CC(C)C)NC(=O)[C@H](CC(C)C)NC(=O)[C@H](CC(C)C)NC(=O)[C@@H](NC(=O)[C@@H](NC(=O)[C@H](CCCNC(=N)N)NC(=O)[C@H](CCCNC(=N)N)NC(=O)[C@H](CCCNC(=N)N)NC(=O)[C@H](CCCNC(=N)N)NC(=O)[C@H](CC(C)C)NC(=O)[C@H](CCCNC(=N)N)NC(=O)[C@H](CO)NC(=O)[C@@H](N)CO)[C@@H](C)CC)C(C)C)C(=O)N[C@@H](CO)C(=O)N[C@@H](CCCNC(=N)N)C(=O)N[C@@H](CCCNC(=N)N)C(=O)N[C@@H](CCCNC(=N)N)C(=O)N[C@@H](CCCNC(=N)N)C(N)=O	broth microdilution	ATCC 13883	highest value reported	4 µM
C[C@H]1COc2c(N3CCN(C)CC3)c(F)cc3c(=O)c(C(=O)O)cn1c23		1188718, multidrug-resistant		1 µg/mL
CCCCCCCCCC(=O)N[C@@H](Cc1c[nH]c2ccccc12)C(=O)N[C@H](CC(N)=O)C(=O)N[C@@H](CC(=O)O)C(=O)N[C@@H]1C(=O)NCC(=O)N[C@@H](CCCN)C(=O)N[C@@H](CC(=O)O)C(=O)N[C@H](C)C(=O)N[C@@H](CC(=O)O)C(=O)NCC(=O)N[C@H](CO)C(=O)N[C@@H]([C@H](C)CC(=O)O)C(=O)N[C@@H](CC(=O)c2ccccc2N)C(=O)O[C@@H]1C	broth dilution	ATCC 27736		inactive
O=C(N[C@H](CO)[C@H](O)c1ccc([N+](=O)[O-])cc1)C(Cl)Cl	broth microdilution	ATCC 43816 acrAB overexpressor		4 µg/mL
CC[C@H](C)[C@H](NC(=O)[C@H](Cc1ccccc1)NC(=O)[C@@H](NC(=O)[C@H](Cc1c[nH]c2ccccc12)NC(=O)[C@@H]1CCCN1C(=O)[C@@H](NC(=O)[C@H](C)N)[C@@H](C)CC)[C@@H](C)CC)C(=O)N[C@@H](Cc1ccccc1)C(=O)N[C@@H](CCCNC(=N)N)C(=O)N[C@@H](CC(C)C)C(=O)N[C@@H](CC(C)C)C(=O)N[C@@H](CCCNC(=N)N)C(=O)N[C@@H](CCCCN)C(=O)NCC(N)=O	broth microdilution	ATCC 700603	18 h, 37 °C	15 µM
CN1C(=O)Cc2ccc(F)c(CCNCC[C@H]3CN(c4ccc5c(n4)NC(=O)CO5)C(=O)O3)c21		ATCC 13883		0.25 µg/mL
NCC[C@H](O)C(=O)N[C@@H]1C[C@H](N)[C@@H](O[C@H]2O[C@H](CN)[C@@H](O)[C@H](O)[C@H]2O)[C@H](O)[C@H]1O[C@H]1O[C@H](CO)[C@@H](O)[C@H](N)[C@H]1O	broth microdilution	parental, KPC-33		> 128 µg/mL
CN(C)[C@@H]1C(O)=C(C(N)=O)C(=O)[C@@]2(O)C(O)=C3C(=O)c4c(O)c(N)nc(F)c4C[C@H]3C[C@@H]12.Cl.Cl		tet(A)-carrying		> 32 µg/mL
CC[C@H](C)CCCCC(=O)N[C@@H](CCN)C(=O)N[C@H](C(=O)N[C@@H](CCN)C(=O)N[C@H]1CCNC(=O)[C@H]([C@@H](C)O)NC(=O)[C@H](CCN)NC(=O)[C@H](CCN)NC(=O)[C@H](CC(C)C)NC(=O)[C@@H](CC(C)C)NC(=O)[C@H](CCN)NC1=O)[C@@H](C)O	broth microdilution	ATCC 43816 ΔacrAB, cation-adjusted MHB		1 µg/mL
Cc1ncc2c(c1O)C(=O)C1=C(O)[C@]3(O)C(=O)C(C(N)=O)=C(O)[C@@H](N(C)C)[C@@H]3C[C@@H]1C2.Cl.Cl		tet(A)-carrying		> 32 µg/mL
COc1ccc2ccc(O)c(/C=N/[C@H]3CCCC[C@H]3/N=C/c3ccc(OCCN4CCCCC4)cc3O)c2c1	bacterial growth, broth microdilution	carbapenem-resistant clinical isolate		> 40 µM
CN(C)[C@@H]1C(O)=C(C(N)=O)C(=O)[C@@]2(O)C(O)=C3C(=O)c4c(O)cncc4C[C@H]3C[C@@H]12.Cl.Cl		tet(A)-carrying		> 32 µg/mL
CC[C@H](C)[C@H](NC(=O)CNC(=O)[C@H](CC(=O)O)NC(=O)[C@H](CCCNC(=N)N)NC(=O)[C@@H](NC(=O)[C@H](CC(N)=O)NC(=O)[C@H](CCCNC(=N)N)NC(=O)CNC(=O)[C@@H](NC(=O)[C@H](CCCCN)NC(=O)[C@H](CCC(=O)O)NC(=O)[C@@H](NC(=O)[C@H](CCCCN)NC(=O)[C@H](CCCCN)NC(=O)[C@H](Cc1ccccc1)NC(=O)[C@@H](NC(=O)[C@H](CCCCN)NC(=O)[C@H](Cc1c[nH]c2ccccc12)NC(=O)[C@@H](N)CCCNC(=N)N)[C@@H](C)CC)[C@@H](C)CC)C(C)C)C(C)C)C(=O)N[C@H](C(=O)N[C@@H](CCCCN)C(=O)N[C@@H](C)C(=O)NCC(=O)N1CCC[C@H]1C(=O)N[C@@H](C)C(=O)N[C@H](C(=O)N[C@@H](C)C(=O)N[C@H](C(=O)N[C@H](C(=O)NCC(=O)N[C@@H](CCC(N)=O)C(=O)N[C@@H](C)C(=O)N[C@@H](C)C(=O)N[C@H](C(=O)N[C@H](C(=O)N[C@H](C(=O)N[C@@H](CCCCN)C(N)=O)C(C)C)C(C)C)[C@@H](C)O)C(C)C)C(C)C)C(C)C)[C@@H](C)CC		NCCP 15866 carbapenem-resistant		2 µM

Some of these lines once more:
Compound	test	test system	conditions	MIC
CC[C@H](C)[C@H](NC(=O)CN)C(=O)NCC(=O)N[C@@H](C)C(=O)N[C@H](C(=O)N[C@@H](CC(C)C)C(=O)N[C@@H](CCCCN)C(=O)N[C@H](C(=O)N[C@@H](CC(C)C)C(=O)N[C@H](C(=O)N[C@H](C(=O)NCC(=O)N[C@@H](CC(C)C)C(=O)N1CCC[C@H]1C(=O)N[C@@H](C)C(=O)N[C@@H](CC(C)C)C(=O)N[C@H](C(=O)N[C@@H](CO)C(=O)N[C@@H](Cc1c[nH]c2ccccc12)C(=O)N[C@H](C(=O)N[C@@H](CCCCN)C(=O)N[C@@H](CCCNC(=N)N)C(=O)N[C@@H](CCCCN)C(=O)N[C@@H](CCCNC(=N)N)C(=O)N[C@@H](CCC(N)=O)C(=O)N[C@@H](CCC(N)=O)C(N)=O)[C@@H](C)CC)[C@@H](C)CC)[C@@H](C)O)[C@@H](C)O)C(C)C)C(C)C	broth microdilution	NCTC 5055	24 h, 37 °C	9 µg/mL
NC(=O)[C@@H]1CC[C@@H]2CN1C(=O)N2OS(=O)(=O)O		ATCC BAA-2146 NDM-1 ESBL	compound alone	8 µg/mL
CC[C@H](C)[C@H](NC(=O)[C@H](CC(C)C)NC(=O)[C@H](CC(C)C)NC(=O)[C@H](CC(C)C)NC(=O)[C@@H](NC(=O)[C@@H](NC(=O)[C@H](CCCNC(=N)N)NC(=O)[C@H](CCCNC(=N)N)NC(=O)[C@H](CCCNC(=N)N)NC(=O)[C@H](CCCNC(=N)N)NC(=O)[C@H](CC(C)C)NC(=O)[C@H](CCCNC(=N)N)NC(=O)[C@H](CO)NC(=O)[C@@H](N)CO)[C@@H](C)CC)C(C)C)C(=O)N[C@@H](CO)C(=O)N[C@@H](CCCNC(=N)N)C(=O)N[C@@H](CCCNC(=N)N)C(=O)N[C@@H](CCCNC(=N)N)C(=O)N[C@@H](CCCNC(=N)N)C(N)=O	broth microdilution	ATCC 13883	highest value reported	4 µM
